Experimental data pooled from the literature.
Compare with care: the assays were run in different laboratories.

`COC1C(c2ccc(Cl)c(Cc3ccc(OC4CCOC4)cc3)c2)OC(CO)C(O)C1O` (stereo not drawn) has an unbound fraction of 0.081 (monkey plasma; 1 µM, 5 h).
For `Cc1cccc(-c2ccc3nc(NC(=O)C4CCCCC4)nn3c2)c1`, the unbound fraction was 0.87 (mouse plasma).
`C=CC(=O)Nc1cc(Nc2ncnc(Nc3cc(Cl)c(F)cc3C(C)(C)O)n2)c(OC)cc1N(C)CCN(C)C` has an unbound fraction of 22.9% (human plasma).
The unbound fraction of `c1ccc(-c2cc3cn[nH]c3nn2)cc1` is reported as 0.191 (rapid equilibrium dialysis; mouse plasma; 3 µM).
The unbound fraction of `C=CC(=O)Nc1cc(Nc2ncnc(Nc3ccccc3C(C)(C)O)n2)c(OC)cc1N(C)CCN(C)C` is reported as 33.6% (human plasma).
With `Cc1[nH]nc2c1N=C(c1ccccc1Cl)c1cnc(N3CCOCC3)cc1N2` the unbound fraction was 0.0402 (rat plasma).
The unbound fraction of `CCC1(CC)CC(=O)N(C2c3cc(C(=O)NC4c5ccccc5CC4O)ccc3OC2(C)COC)C(=N)N1` (stereo not drawn) is reported as 0.153 (mouse plasma).
The unbound fraction of `c1n[nH]c2nnc(N3CCCCC3)cc12` is reported as 0.168 (rapid equilibrium dialysis; mouse plasma; 3 µM).
With `CCC1(CC)CC(=O)N(C2CCOc3ccc(C(=O)NC4CC(C)(C)Oc5ccccc54)cc32)C(=N)N1` (stereo not drawn) the unbound fraction was 0.048 (rat plasma).
For `C=CC(=O)Nc1cc(Nc2nccc(Nc3cc(Cl)c(F)cc3C(C)(C)O)n2)c(OC)cc1N1CC[C@H](N(C)C)C1`, the unbound fraction was 11.1% (human plasma).
The unbound fraction of `C=CC(=O)N1CC2C(=O)N(CCN(C)C)c3c(c4cc(Cl)c(-c5c(O)cccc5F)nc4n(-c4c(C)ccnc4C(C)C)c3=O)N2CC1C` (stereo not drawn) is reported as 0.11 (human plasma).
`CC(=O)N1c2ccc(-c3ccc(CNC(=O)c4cn5cc(-c6cnc(N)nc6)nc(N6CCOCC6)c5n4)cc3)cc2CC[C@@H]1C` has an unbound fraction of 0.002 (rapid equilibrium dialysis; mouse plasma).

Excerpt of the above:
The unbound fraction of `CCC1(CC)CC(=O)N(C2c3cc(C(=O)NC4c5ccccc5CC4O)ccc3OC2(C)COC)C(=N)N1` (stereo not drawn) is reported as 0.153 (mouse plasma).
